# Assay results from different studies.
# A part holds a random share of what one study measured. Substitutions count along the parent as printed.

# Set 1 — technique: protein-binding microarray; form: double-stranded DNA, one strand shown; sample: in vitro; concentration: 250 nM; notes: 60-bp whole probe; with: salmon DNA 0.4 mg/ml; relative to: random background probes; reading: higher = stronger binding; shared flanks, not repeated: GCCTAGCAC … GTCTTGATTCGCTTGACGCTGCTG
# Target: Interferon regulatory factor 7, full length, phosphomimetic (IRF7, Homo sapiens, UniProt Q92985, residues 1-503, S101K/S471D/S472D/S475D/S476D/S477D/S483D/S484D/S487D)
# Construct (chain): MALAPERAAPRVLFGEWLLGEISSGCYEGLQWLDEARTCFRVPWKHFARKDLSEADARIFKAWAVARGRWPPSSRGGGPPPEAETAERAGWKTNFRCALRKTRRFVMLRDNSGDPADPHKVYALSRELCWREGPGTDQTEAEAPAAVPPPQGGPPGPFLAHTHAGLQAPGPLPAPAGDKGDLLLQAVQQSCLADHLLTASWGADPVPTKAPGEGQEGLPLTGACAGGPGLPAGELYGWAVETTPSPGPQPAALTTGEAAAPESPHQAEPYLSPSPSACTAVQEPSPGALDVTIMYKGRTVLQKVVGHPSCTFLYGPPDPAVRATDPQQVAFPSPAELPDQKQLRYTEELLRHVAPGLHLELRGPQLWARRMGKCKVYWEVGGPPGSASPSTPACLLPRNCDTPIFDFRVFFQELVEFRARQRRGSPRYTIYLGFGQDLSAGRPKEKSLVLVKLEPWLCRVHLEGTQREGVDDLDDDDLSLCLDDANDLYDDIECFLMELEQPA
Strand,log fluorescence [z-score]
CTTTCTTTACTTCACTCTCTGTGCTAG,2.01
GACGGGTTCGGGACTGGGGACGTGCTA,-0.0359
TCACTTTCACTTCTCCCACTGTGCTAG,4.16
CTTCTCCTCTAGGTTCTCTGAGTGCTA,0.599
CCTCACTTCCTTCTGCCTGTGTGCTAG,0.413

# Set 2 — technique: RNA Bind-n-Seq; form: RNA; sample: in vitro; concentration: not given; relative to: input RNA pool; reading: higher = stronger binding
# Target: RING finger protein unkempt homolog, zinc fingers 1-6, GST-SBP tag (UNK, Homo sapiens, UniProt Q9C0B0, residues 30-357)
# Chain of UniProt Q9C0B0 (30-357, looked up): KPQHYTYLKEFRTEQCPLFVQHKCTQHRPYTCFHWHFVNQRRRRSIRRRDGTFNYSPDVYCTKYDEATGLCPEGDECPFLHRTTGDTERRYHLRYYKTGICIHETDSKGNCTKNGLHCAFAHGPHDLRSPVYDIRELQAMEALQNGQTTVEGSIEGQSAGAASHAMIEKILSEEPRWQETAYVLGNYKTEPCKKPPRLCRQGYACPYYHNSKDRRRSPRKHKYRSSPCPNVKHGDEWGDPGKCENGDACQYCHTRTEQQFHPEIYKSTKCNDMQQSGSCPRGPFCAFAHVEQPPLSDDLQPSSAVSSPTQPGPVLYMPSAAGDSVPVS
# Notes: RNA with constant flanks, human-mouse chimeric sites, ends assumed
# Shared flanks, not repeated: GGGAGUUCUACAGUCCGACGAUC … CAACAGAGGAUUGAGCAUCA
Strand,bound/input enrichment
GUAAUGGACGUCAACACUGCUUUACAAGAGGUGCUGAAGACCGCCCUCAUCCACGAUGGCCUAGCACGUGGCAUACGCGAAGCUGCCAAAGCCUUAGACAAGCGCCAAGCCCAUCUUUGU,0.109 ratio
CUGGCACUCUAUCAGAUAGAUUACUUUUUUAAUGUAGAUAAAAUUUCAAAAAUGAAUGGCUACUUUACACGUUUAACUAGGGUUUUACUAUAUAUGUGUACAUAUGUAUAUAUAUAUAUA,43 ratio
AUUGUUGAAGCGAAUCCACUUUUAGAAGCCUUUGGAAAUGCAAAGACUGUUCGCAACAAUAAUAGCAGUCGAUUUGGAAAAUUUGUAGAAAUUCAUUUUAAUGAAAAGAGUUCGGUUGUU,0.623 ratio
CUGAGGAUACCACUGAAGAGACCUUAAAAGAAUCAUUUUGACGGCUCGUUCGUGCAAAGGAUAGUUAUGAUCGGGAAACUGGUUCUUCCAAAGGGUUUGGUUUUGUAGACUUUAAUAGUG,0.77 ratio
CACAGAGCAGCACCUACCCCCUCCUCCUUUCCACACCUGCAAACCCUUUUACUUGGGCUGAAUAUUUAGUGUAAUUACAUCUCAGCUUUGAGGGCUCCUGUGGCAAAUUCCCGGAUUAAA,0.937 ratio
UUUCUACUGCAGCAGACGAUGCUAAGAAUUAAGGAUCCUAAGAAGUCCCUGGAUUUUUAUACGAGGGUUCUUGGACUGACCCUCCUGCAAAAAUGUGACUUCCCUGCUAUGAAGUUCUCG,0.282 ratio

# Set 3 — target: CCNE2, cyclin fold, Cln2 fusion (human); technique: yeast growth competition, sequencing; sample: yeast; notes: strong parent motif; relative to: not given; reading: higher = stronger binding
# Starting sequence: BRCA2 docking peptide (human); PSIKRNLLNEFDR
Change,normalised enrichment score
D12M,2.55
D12H,0.903
L7C,-0.802
F11D,-0.089
E10T,-0.345

# Other studies, line by line
Molecule,target,assay,test system,setting,how to read,measurement,result
"PhoQ, residues 284 288 289 292 302 303 TNASYF","PhoP, residues 12 14 15 18 19 TPWLV (Escherichia coli, UniProt P23836)","Sort-seq, refers to: YFP reporter",E. coli,"PhoQ-PhoP variant library, with: 10 µM Mg2+","relative to: high Mg2+ state, higher = stronger signaling",fold induction,0.994
